Assay results of several laboratories.
Each numbered part is a random draw from the data of one study; scales do not carry over between parts.
Sequence of UniProt Q13873 (whole entry, looked up): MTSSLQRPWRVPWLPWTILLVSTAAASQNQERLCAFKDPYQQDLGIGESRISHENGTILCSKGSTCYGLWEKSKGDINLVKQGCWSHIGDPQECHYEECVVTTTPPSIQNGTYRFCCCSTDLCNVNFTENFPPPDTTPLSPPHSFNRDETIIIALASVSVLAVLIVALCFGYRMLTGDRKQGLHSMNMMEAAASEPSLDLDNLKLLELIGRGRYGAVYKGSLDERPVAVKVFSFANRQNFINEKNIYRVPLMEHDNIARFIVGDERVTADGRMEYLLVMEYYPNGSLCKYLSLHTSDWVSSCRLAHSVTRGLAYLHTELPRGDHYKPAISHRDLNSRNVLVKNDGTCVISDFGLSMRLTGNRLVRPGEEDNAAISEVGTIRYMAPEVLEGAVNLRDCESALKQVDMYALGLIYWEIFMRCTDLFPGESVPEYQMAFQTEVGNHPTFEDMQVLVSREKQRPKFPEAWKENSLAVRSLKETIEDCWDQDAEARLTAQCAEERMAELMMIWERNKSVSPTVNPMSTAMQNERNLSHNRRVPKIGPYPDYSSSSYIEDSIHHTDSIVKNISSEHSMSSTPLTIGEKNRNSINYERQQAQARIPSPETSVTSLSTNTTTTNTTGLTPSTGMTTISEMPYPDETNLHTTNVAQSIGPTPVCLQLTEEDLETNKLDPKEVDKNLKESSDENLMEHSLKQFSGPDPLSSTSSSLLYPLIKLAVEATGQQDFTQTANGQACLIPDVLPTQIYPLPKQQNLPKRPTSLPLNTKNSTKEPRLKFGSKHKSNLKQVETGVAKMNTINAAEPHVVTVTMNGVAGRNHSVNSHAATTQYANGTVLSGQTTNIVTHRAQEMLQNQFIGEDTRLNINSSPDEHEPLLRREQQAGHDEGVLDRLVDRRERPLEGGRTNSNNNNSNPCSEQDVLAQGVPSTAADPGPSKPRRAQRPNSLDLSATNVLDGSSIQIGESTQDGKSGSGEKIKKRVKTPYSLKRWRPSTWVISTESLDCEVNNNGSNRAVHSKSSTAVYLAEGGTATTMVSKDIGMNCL
Sequence of UniProt Q15759 (whole entry, looked up): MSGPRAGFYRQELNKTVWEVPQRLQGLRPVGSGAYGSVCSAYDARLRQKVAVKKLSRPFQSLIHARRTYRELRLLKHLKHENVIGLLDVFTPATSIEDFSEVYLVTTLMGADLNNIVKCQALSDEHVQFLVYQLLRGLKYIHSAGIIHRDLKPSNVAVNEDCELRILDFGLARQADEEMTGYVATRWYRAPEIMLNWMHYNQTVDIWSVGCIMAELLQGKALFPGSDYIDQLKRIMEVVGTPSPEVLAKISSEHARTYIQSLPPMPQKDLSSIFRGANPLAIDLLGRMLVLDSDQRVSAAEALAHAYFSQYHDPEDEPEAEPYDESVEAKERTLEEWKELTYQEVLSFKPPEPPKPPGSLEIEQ
Sequence of UniProt Q12851 (whole entry, looked up): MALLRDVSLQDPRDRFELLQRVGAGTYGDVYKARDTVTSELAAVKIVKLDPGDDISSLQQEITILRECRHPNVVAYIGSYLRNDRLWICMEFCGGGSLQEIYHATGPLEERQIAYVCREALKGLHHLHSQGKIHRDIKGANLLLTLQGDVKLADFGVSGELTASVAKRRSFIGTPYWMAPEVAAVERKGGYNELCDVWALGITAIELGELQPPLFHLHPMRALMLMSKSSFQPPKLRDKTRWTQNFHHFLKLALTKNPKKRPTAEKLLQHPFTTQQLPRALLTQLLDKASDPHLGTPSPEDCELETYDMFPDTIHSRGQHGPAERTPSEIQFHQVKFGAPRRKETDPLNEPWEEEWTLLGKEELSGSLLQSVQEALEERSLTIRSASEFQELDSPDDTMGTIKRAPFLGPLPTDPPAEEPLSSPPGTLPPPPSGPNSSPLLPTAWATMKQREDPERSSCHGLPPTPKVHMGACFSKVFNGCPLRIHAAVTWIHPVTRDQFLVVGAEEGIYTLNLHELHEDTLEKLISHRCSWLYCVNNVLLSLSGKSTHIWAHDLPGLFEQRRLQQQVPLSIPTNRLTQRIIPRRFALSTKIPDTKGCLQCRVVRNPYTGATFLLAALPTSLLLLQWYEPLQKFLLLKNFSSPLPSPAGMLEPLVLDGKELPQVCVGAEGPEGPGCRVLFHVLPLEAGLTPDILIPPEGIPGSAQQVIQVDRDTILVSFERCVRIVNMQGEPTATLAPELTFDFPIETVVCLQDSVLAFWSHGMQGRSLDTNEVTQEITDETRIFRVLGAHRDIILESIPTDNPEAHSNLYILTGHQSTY
Sequence of UniProt P36896 (whole entry, looked up): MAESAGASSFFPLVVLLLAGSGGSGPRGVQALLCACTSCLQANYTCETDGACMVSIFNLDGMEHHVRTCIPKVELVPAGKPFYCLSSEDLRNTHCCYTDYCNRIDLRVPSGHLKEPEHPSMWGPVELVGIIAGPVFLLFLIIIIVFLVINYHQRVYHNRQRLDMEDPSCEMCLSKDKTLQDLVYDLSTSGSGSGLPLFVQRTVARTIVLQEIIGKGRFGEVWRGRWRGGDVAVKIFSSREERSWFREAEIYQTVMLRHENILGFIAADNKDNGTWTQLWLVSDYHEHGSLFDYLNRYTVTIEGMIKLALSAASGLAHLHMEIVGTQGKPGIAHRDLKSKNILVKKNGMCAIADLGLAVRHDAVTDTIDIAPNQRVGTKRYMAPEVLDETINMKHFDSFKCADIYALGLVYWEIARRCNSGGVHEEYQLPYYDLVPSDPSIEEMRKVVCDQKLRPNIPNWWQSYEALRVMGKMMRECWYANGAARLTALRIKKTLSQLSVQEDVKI

Set 1
Target: Sal-like protein 4, full length isoform A (SALL4, Homo sapiens, UniProt Q9UJQ4, residues 1-1053)
Sequence of UniProt Q9UJQ4 (whole entry, looked up): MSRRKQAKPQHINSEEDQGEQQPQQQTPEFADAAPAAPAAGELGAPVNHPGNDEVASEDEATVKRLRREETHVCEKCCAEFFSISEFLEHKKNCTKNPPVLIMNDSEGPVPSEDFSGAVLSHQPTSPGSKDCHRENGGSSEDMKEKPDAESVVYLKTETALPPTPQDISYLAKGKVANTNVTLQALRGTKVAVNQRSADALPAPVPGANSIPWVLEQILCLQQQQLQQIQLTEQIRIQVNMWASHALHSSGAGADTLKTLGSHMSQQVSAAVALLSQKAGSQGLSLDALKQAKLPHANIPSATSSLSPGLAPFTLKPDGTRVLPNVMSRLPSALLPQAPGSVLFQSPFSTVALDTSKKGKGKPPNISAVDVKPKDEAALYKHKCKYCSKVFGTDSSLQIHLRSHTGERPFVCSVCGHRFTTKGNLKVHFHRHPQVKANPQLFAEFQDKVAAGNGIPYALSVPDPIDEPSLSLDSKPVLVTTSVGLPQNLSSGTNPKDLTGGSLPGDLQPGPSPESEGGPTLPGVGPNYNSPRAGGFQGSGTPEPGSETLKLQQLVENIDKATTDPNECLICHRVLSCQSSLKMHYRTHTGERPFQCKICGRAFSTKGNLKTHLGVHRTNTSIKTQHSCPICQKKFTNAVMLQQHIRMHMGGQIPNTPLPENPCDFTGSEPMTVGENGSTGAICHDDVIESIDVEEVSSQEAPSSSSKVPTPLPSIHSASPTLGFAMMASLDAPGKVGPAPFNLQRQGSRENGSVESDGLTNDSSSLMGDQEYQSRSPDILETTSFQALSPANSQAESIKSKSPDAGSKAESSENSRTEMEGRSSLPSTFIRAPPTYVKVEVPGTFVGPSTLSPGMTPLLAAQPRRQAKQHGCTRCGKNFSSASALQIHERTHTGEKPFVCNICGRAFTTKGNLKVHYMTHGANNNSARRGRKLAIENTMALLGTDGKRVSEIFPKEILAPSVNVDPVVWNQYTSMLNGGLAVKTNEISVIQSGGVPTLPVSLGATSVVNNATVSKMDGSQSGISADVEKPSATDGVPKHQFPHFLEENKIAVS
Technique: universal PBM
Form: double-stranded DNA, one strand shown
Medium: in vitro
Tested at: 600 nM
Setting: 8-mer, flanks averaged, mean of replicates
Direction: higher = stronger binding
Sequence	E-score
CTTGCCCA	-0.0744
ACCTCTGA	-0.0537
CGCGGCAC	-0.294
GCATAGGA	-0.00559
ATGCTGGG	-0.315
CATAGTCG	0.0365
GCCGTCGA	-0.287
CAAGAACC	0.0147

Set 2
Compound: CC1=C(C#N)[C@@H](c2ccc3[nH]nc(C)c3c2)C(C#N)=C(c2ccc(Cl)cc2)N1
Tested at: 1 µM
target	test	remaining binding [%]
SRPK1 (Homo sapiens, UniProt Q96SB4)	cell-free assay, competition with immobilised ligand	100
DMPK (Homo sapiens, UniProt Q09013)	cell-free assay, competition with immobilised ligand	100
Ribosomal protein S6 kinase alpha-4, N-terminal kinase domain (RPS6KA4, Homo sapiens, UniProt O75676)	cell-free assay, competition with immobilised ligand	81.4
EPHA8 (Homo sapiens, UniProt P29322)	cell-free assay, competition with immobilised ligand	100
CDKL1 (Homo sapiens, UniProt Q00532)	binding, competition with immobilised ligand	77.1
FLT3 (Homo sapiens, UniProt P36888, D835V/ITD)	cell-free assay, competition with immobilised ligand	93.9
BMPR2 (Homo sapiens, UniProt Q13873)	cell-free assay, competition with immobilised ligand	100
ACVR1B (Homo sapiens, UniProt P36896)	cell-free assay, competition with immobilised ligand	100
Receptor-type tyrosine-protein kinase FLT3, autoinhibited (FLT3, Homo sapiens, UniProt P36888)	cell-free assay, competition with immobilised ligand	100
AAK1 (Homo sapiens, UniProt Q2M2I8)	binding	100
MAP4K2 (Homo sapiens, UniProt Q12851)	cell-free assay, competition with immobilised ligand	100
MAP3K19 (Homo sapiens, UniProt Q56UN5)	cell-free assay, competition with immobilised ligand	100
MAPK11 (Homo sapiens, UniProt Q15759)	cell-free assay, competition with immobilised ligand	99.8
GSK3B (Homo sapiens, UniProt P49841)	cell-free assay, competition with immobilised ligand	69.6
EGFR (Homo sapiens, UniProt P00533, L858R)	cell-free assay, competition with immobilised ligand	89.5
CDK13 (Homo sapiens, UniProt Q14004)	cell-free assay, competition with immobilised ligand	86.6
MAP3K6 (Homo sapiens, UniProt O95382)	cell-free assay, competition with immobilised ligand	83.2
MYLK2 (Homo sapiens, UniProt Q9H1R3)	cell-free assay, competition with immobilised ligand	91.4
MAP2K1 (Homo sapiens, UniProt Q02750)	cell-free assay, competition with immobilised ligand	100

Set 3
Target: Receptor tyrosine-protein kinase erbB-4 (ERBB4, Homo sapiens, UniProt Q15303)
Sequence of UniProt Q15303 (whole entry, looked up): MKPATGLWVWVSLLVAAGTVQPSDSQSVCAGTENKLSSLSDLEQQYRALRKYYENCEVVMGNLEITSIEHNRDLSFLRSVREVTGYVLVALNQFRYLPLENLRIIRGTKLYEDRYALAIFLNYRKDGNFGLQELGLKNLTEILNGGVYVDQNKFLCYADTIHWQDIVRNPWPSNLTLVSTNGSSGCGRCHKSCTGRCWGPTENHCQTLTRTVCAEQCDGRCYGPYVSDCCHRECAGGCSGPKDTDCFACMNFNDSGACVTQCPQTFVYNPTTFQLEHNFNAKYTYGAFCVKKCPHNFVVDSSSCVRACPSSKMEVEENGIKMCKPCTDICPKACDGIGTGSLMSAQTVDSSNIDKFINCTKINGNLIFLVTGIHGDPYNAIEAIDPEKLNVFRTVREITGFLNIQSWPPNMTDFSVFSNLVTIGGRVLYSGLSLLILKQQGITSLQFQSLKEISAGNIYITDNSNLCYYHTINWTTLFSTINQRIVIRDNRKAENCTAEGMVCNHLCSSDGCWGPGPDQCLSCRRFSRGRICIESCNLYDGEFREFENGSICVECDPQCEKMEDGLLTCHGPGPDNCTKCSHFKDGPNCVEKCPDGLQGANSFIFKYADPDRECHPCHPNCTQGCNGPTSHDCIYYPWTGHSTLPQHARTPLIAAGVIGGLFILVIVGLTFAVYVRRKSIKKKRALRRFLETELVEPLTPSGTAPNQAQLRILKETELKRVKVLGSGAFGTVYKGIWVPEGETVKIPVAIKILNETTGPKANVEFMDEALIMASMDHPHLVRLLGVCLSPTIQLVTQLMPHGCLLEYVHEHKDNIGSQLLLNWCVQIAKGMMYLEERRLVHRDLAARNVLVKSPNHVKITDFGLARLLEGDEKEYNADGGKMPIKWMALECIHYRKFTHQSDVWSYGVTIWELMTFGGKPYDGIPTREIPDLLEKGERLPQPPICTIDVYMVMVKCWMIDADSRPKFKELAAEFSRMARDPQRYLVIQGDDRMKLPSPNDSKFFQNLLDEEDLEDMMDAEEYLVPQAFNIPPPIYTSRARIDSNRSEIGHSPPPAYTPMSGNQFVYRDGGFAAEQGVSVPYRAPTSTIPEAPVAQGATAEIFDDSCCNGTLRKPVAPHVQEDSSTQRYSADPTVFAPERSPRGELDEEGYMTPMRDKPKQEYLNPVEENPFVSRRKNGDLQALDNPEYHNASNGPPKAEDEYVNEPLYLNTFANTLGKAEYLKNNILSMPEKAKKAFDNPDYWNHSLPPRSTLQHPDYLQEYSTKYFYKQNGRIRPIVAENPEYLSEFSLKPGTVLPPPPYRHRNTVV
Effect on: enzyme activity
Mode: inhibitor
Tested at: 0.5 µM
Reference: control
SMILES	remaining activity [%]
NCCNc1ncc(C(N)=O)c(Nc2cccc(C(F)(F)F)c2)n1	88.5
Cc1ccc(Nc2nccc(N(C)c3ccc4c(C)n(C)nc4c3)n2)cc1S(N)(=O)=O	86.9
COc1ccc(CNC(=O)Nc2ncc([N+](=O)[O-])s2)cc1	95.2
O=C(CCCc1ccc(-c2ccccc2F)cc1)Nc1ccc(O)cc1	107
Cc1cccc(-c2[nH]c(C(C)(C)C)nc2-c2ccc3c(c2)OCO3)n1	83.1
OCC(O)CCON=C1C(c2c(O)[nH]c3ccccc23)=Nc2ccccc21 (stereo not drawn)	97.5
O=S(=O)(c1cccc2cnccc12)N1CCCNCC1	102
CO[C@H]1C[C@@H]2CC[C@@H](C)[C@@](O)(O2)C(=O)C(=O)N2CCCC[C@H]2C(=O)O[C@H]([C@H](C)C[C@@H]2CC[C@@H](O)[C@H](OC)C2)CC(=O)[C@H](C)/C=C(\C)[C@@H](O)[C@@H](OC)C(=O)[C@H](C)C[C@H](C)/C=C/C=C/C=C/1C	88.7
COc1ccc(C(=O)Nc2sc3c(c2C(N)=O)CCCC3)cc1OC	97.2
O=c1c2ccccc2[nH]c(=S)n1CCN1CCC(=C(c2ccc(F)cc2)c2ccc(F)cc2)CC1	87.4
Nc1ncnc2n[nH]c(Nc3ccc(F)cc3)c12	121
CC(C)[C@H](CO)Nc1nc(Nc2cc(N)cc(Cl)c2)c2ncn(C(C)C)c2n1	131
C#Cc1cccc(Nc2ncnc3cc(OCCOC)c(OCCOC)cc23)c1	61.4
Cn1sc(=O)n(Cc2ccccc2)c1=O	104

Other studies, line by line
Technique: cross-linking MS
Substance	partner	test system	setting	quantity	result
MCM5 (Homo sapiens, UniProt P33992)	MCM2 (Homo sapiens, UniProt P49736)	cell fractions	added: DMTMM	cross-linked residues	K228 to E568
H2BC21 (Homo sapiens, UniProt Q16778)	H2AC18 (Homo sapiens, UniProt Q6FI13)	–	hits only	interaction screen	cross-linked
SNRPB2 (Homo sapiens, UniProt P08579)	SNRPD3 (Homo sapiens, UniProt P62318)	cell fractions	added: DMTMM	cross-linked residues	K111 to E14
H2AC11 (Homo sapiens, UniProt P0C0S8)	H3-4 (Homo sapiens, UniProt Q16695)	–	hits only	interaction screen	cross-linked

Excerpt of the above (set 2):
target	test	remaining binding [%]
EGFR (Homo sapiens, UniProt P00533, L858R)	cell-free assay, competition with immobilised ligand	89.5
CDK13 (Homo sapiens, UniProt Q14004)	cell-free assay, competition with immobilised ligand	86.6
MAP3K6 (Homo sapiens, UniProt O95382)	cell-free assay, competition with immobilised ligand	83.2
